Experimental data gathered from unrelated publications.
Lines come from different studies, so protocols differ.
Organism: Plasmodium falciparum
Effect on: parasite growth
Setting: blood stage

For `CNC(=O)c1c(F)cccc1Nc1nc(Nc2cc3c(cc2OC)CCN3C(=O)CN(C)C)nc2[nH]ccc12`, the EC50 was 2.51 µM (D6).
For `Cc1ccc(NCC(=O)NC2CCC(F)(F)CC2)cc1S(=O)(=O)N1CCOCC1`, the EC50 was 1.71 µM (3D7).
With `O=c1cc[s+]([O-])c2ccccc12` (single isomer, unassigned; (-)) the EC50 was 91.3 µM (3D7; 72 h).
The EC50 of `Cc1ccc(NCC(=O)Nc2ccc(F)c(Cl)c2)cc1S(=O)(=O)N1CCOCC1` is reported as 0.14 µM (3D7).
For `COC(=O)c1[nH]c(C(=O)OC)c2c1-c1c[nH]c3ccc(Cl)c(c13)[C@]21C=Nc2ccc(Cl)cc21`, the EC50 was 4.8 µM (SYBR Green; 3D7; 72 h).
The EC50 of `CN1CCN(C(=O)c2ccc(-c3cc4nccc(-c5ccc6cnccc6c5)c4o3)cc2)CC1` is reported as 0.022 µM (3D7).
For `Cc1ccc(CNC(=O)[C@@H]2Cc3cccc(c3)Oc3cccc(c3)C[C@H](N)C(=O)N[C@@H](CCc3ccccc3)C(=O)N2)cc1`, the EC50 was 0.0345 µM (D10; 72 h).
The EC50 of `Cc1ccc(NCC(=O)Nc2ccon2)cc1S(=O)(=O)N1CCOCC1` is reported as greater than 50 µM (3D7).
With `O=c1cc[s+]([O-])c2ccc(Cl)cc12` (racemic) the EC50 was 107 µM (3D7; 72 h).

A few entries again:
With `O=c1cc[s+]([O-])c2ccc(Cl)cc12` (racemic) the EC50 was 107 µM (3D7; 72 h).
